Assay results collected from several papers.
Each line is one published result; not all experiments were run side by side. Numbers after ± are the reported error.

CCCC[C@@H]1NC(=O)[C@@H](NC(=O)[C@H](CCC(=O)O)NC(=O)CNC(=O)CN2CCN(CC(=O)O)CCN(CC(=O)O)CCN(CC(=O)O)CC2)CCCCNC(=O)C[C@@H](C(N)=O)NC(=O)[C@H](C(C)C)NC(=O)[C@@H]2CCCN2C(=O)[C@H](CCCNC(=N)N)NC(=O)CNC(=O)[C@H](Cc2c[nH]c3ccccc23)NC(=O)[C@H](CCCNC(=N)N)NC(=O)[C@@H](Cc2ccccc2)NC(=O)[C@H](Cc2c[nH]cn2)NC(=O)[C@H](CCC(=O)O)NC1=O [gallium-67 labelled]  tissue uptake (C57 mice, B16/F10 lung metastases, brain; intravenous, 0.037 MBq/mouse, 4 h): 0.01 ± 0.01 %ID/g
CN1C(=O)[C@@H](Cc2ccc(O)c(I)c2)NC(=O)CNC(=O)[C@H](Cc2ccc3ccccc3c2)NC(=O)[C@H](CCCNC(=N)N)NC(=O)[C@H]1CCCNC(=O)c1ccc(CNC(=O)CN2CCN(CC(=O)O)CCN(CC(=O)O)CCN(CC(=O)O)CC2)cc1 [lutetium-177 labelled]  tissue uptake (measured: 177Lu radioactivity; female CB-17 SCID mice, Daudi xenograft, muscle; intravenous, 0.16 nmol per mouse, 6 h): 0.06 ± 0.01 %ID/g
N=C(N)NCCC[C@@H]1NC(=O)[C@H](CCCCNC(=O)CON=C[C@H](F)[C@@H](O)[C@H](O)[C@H](O)CO)NC(=O)[C@@H](Cc2ccc(O)cc2)NC(=O)[C@H](CC(=O)O)NC(=O)CNC1=O [fluorine-18 labelled]  tissue uptake (nude mice U-87 MG tumour, intestine; intravenous, 2 h): 0.28 ± 0.19 %ID/g
NC12CNCCNCC(NCc3ccc(CNC(=O)CCCC(=O)NCc4ccc(-c5nncnn5)cc4)cc3)(CNCCNC1)CNCCNC2.[64Cu+2]  tissue uptake (athymic nude mice SW1222 xenograft, heart; 4 h post injection, 24 h accumulation interval, added: huA33-TCO pretargeting): 1.45 ± 0.03 %ID/g
N=C(N)NCCC[C@@H]1NC(=O)[C@H](CCCCNC(=O)CC[C@H](NC(=O)[C@H]2O[C@@H](CNC(=O)c3ccc(F)cc3)[C@H](O)[C@@H](O)[C@H]2O)C(=O)NCCCC[C@@H]2NC(=O)[C@@H](Cc3ccc(O)cc3)NC(=O)[C@H](CC(=O)O)NC(=O)CNC(=O)[C@H](CCCNC(=N)N)NC2=O)NC(=O)[C@@H](Cc2ccc(O)cc2)NC(=O)[C@H](CC(=O)O)NC(=O)CNC1=O [fluorine-18 labelled]  tissue uptake (small-animal PET; female athymic nude mice, U-87 MG xenograft, liver; intravenous, 3.7 MBq, 60 min): 0.59 ± 0.1 %ID/g
O=C([O-])CN1CCN(CC(=O)[O-])CCN(CC(=O)[O-])CCN(CC(=O)[O-])CC1.[64Cu+2]  tissue uptake (healthy athymic nude mice, muscle; intravenous, 24 h): 0.09 %ID/g
CC(F)C(=O)NC[C@@H]1O[C@H](C(=O)N[C@@H](CCC(=O)NCCCC[C@@H]2NC(=O)[C@@H](Cc3ccc(O)cc3)NC(=O)[C@H](CC(=O)O)NC(=O)CNC(=O)[C@H](CCCNC(=N)N)NC2=O)C(=O)NCCCC[C@@H]2NC(=O)[C@@H](Cc3ccc(O)cc3)NC(=O)[C@H](CC(=O)O)NC(=O)CNC(=O)[C@H](CCCNC(=N)N)NC2=O)[C@H](O)[C@H](O)[C@H]1O (stereo partly shown) [fluorine-18 labelled]  tissue uptake (small-animal PET; female athymic nude mice, U-87 MG xenograft, kidney; intravenous, 3.7 MBq, 60 min): 2.48 ± 0.63 %ID/g
O=C([O-])CN1CCN(CC(=O)[O-])CC(Cc2ccc(NC(=S)NCCOCCOCCOCCOCCOCCOCCOCCNC(=O)CCCC(=O)NCc3ccc(-c4nncnn4)cc3)cc2)N(CC(=O)[O-])CC1.[64Cu+2] (stereo not shown)  tissue uptake (PET and biodistribution; healthy athymic nude mice, large intestine with contents; 4 h post-injection): 4.9 ± 0.7 %ID/g
CCCC[C@H](NC(=O)CNC(=O)CNC(=O)CN1CCN(CC(=O)O)CCN(CC(=O)O)CCN(CC(=O)O)CC1)C(=O)N[C@H]1CC(=O)NCCCC[C@@H](C(N)=O)NC(=O)[C@H](Cc2c[nH]c3ccccc23)NC(=O)[C@H](CCCNC(=N)N)NC(=O)[C@@H](Cc2ccccc2)NC(=O)[C@H](Cc2c[nH]cn2)NC1=O [lead-203 labelled]  tissue uptake (C57 mice with metastatic melanoma, lung; intravenous, 0.056 MBq, 2 h): 7.32 ± 2.13 %ID/g
O=C(NCCCN(CCCCN(CCCNC(=O)c1cccc(=O)n1[O-])C(=O)c1cccc(=O)n1[O-])C(=O)c1cccc(=O)n1[O-])c1cccc(=O)n1[O-].[89Zr+4]  tissue uptake (healthy athymic nude mice, gall bladder; intravenous, 1 h): 6.94 ± 3.38 %ID/g
CC(C)[C@H](NC(=O)[C@@H]1CCCN1C(=O)[C@H](CCCNC(=N)N)NC(=O)[C@H](CS)NC(=O)[C@H](Cc1c[nH]c2ccccc12)NC(=O)[C@H](CCCNC(=N)N)NC(=O)[C@@H](Cc1ccccc1)NC(=O)[C@H](Cc1c[nH]cn1)NC(=O)[C@H](CCC(=O)O)NC(=O)[C@H](CS)NC(=O)[C@H](CS)NC(=O)CNC(=O)[C@@H]1CC(=O)N[C@@H](CCCNC(=N)N)C(=O)NCC(=O)N[C@@H](CC(=O)O)C(=O)N[C@H](Cc2ccc(O)cc2)C(=O)N1)C(N)=O [technetium-99m labelled]  tissue uptake (C57 mice B16/F1 melanoma female, lung; iv, 2 h, added: NDP-MSH 10 µg co-injected): 2.84 ± 2.62 %ID/g
CC(F)C(=O)NC[C@@H]1O[C@H](C(=O)NCCCC[C@@H]2NC(=O)[C@@H](Cc3ccccc3)NC(=O)[C@H](CC(=O)O)NC(=O)CNC(=O)[C@H](CCCNC(=N)N)NC2=O)[C@H](O)[C@H](O)[C@H]1O (stereo partly shown) [fluorine-18 labelled]  tissue uptake (small-animal PET; female athymic nude mice, U-87 MG xenograft, kidney; intravenous, 3.7 MBq, 60 min): 0.91 ± 0.08 %ID/g
CCCC[C@H](NC(=O)CNC(=O)CNC(=O)CN1CCN(CC(=O)O)CCN(CC(=O)O)CC1)C(=O)N[C@H]1CC(=O)NCCCC[C@@H](C(N)=O)NC(=O)[C@H](Cc2c[nH]c3ccccc23)NC(=O)[C@H](CCCNC(=N)N)NC(=O)[C@@H](Cc2ccccc2)NC(=O)[C@H](Cc2c[nH]cn2)NC1=O [gallium-67 labelled]  tissue uptake (female C57 mice, B16/F1 melanoma, bone; intravenous, 0.037 MBq, 4 h): 0.96 ± 0.87 %ID/g
N=C(N)NCCC[C@H](NC(=O)[C@@H]1CSSC[C@H](NC(=O)[C@H](Cc2ccc3ccccc3c2)NC(=O)[C@H](CCCNC(=N)N)NC(=O)[C@H](CCCNC(=N)N)NC(=O)CN2CCN(CC(=O)O)CCN(CC(=O)O)CCN(CC(=O)O)CC2)C(=O)N[C@@H](Cc2ccc(O)cc2)C(=O)N[C@@H](CCCNC(N)=O)C(=O)N[C@@H](CCCCN)C(=O)N[C@H](CCCCN)C(=O)N2CCC[C@H]2C(=O)N[C@@H](Cc2ccc(O)cc2)C(=O)N[C@@H](CCCNC(=N)N)C(=O)N[C@@H](CCCNC(N)=O)C(=O)N1)C(N)=O [copper-64 labelled]  tissue uptake (female athymic nude mice, spleen; intravenous, 50 µCi, 4 h): 6.7 ± 0.86 %ID/g
CCCC[C@H](NC(=O)CN1CCC(NC(=O)CN2CCN(CC(=O)O)CCN(CC(=O)O)CCN(CC(=O)O)CC2)CC1)C(=O)N[C@H]1CC(=O)NCCCC[C@@H](C(N)=O)NC(=O)[C@H](Cc2c[nH]c3ccccc23)NC(=O)[C@H](CCCNC(=N)N)NC(=O)[C@@H](Cc2ccccc2)NC(=O)[C@H](Cc2c[nH]cn2)NC1=O [gallium-68 labelled]  tissue uptake (male C57BL/6J mice, B16-F10 tumours, heart; intravenous, 1 h, blocking study, added: 100 µg non-radioactive Ga-peptide): 1 ± 0.5 %ID/g
CCCC[C@H](NC(=O)CNC(=O)CNC(=O)CN1CCN(CC(=O)O)CCN(CC(=O)O)CCN(CC(=O)O)CC1)C(=O)N[C@H]1CC(=O)NCCCC[C@@H](C(N)=O)NC(=O)[C@H](Cc2c[nH]c3ccccc23)NC(=O)[C@H](CCCNC(=N)N)NC(=O)[C@@H](Cc2ccccc2)NC(=O)[C@H](Cc2c[nH]cn2)NC1=O [gallium-67 labelled]  tissue uptake (female C57 mice, B16/F1 melanoma, brain; intravenous, 0.037 MBq, 4 h): 0.08 ± 0.03 %ID/g
N=C(N)NCCC[C@H](NC(=O)CON=C[C@H](F)[C@@H](O)[C@H](O)[C@H](O)CO)C(=O)NCC(=O)N[C@@H](CC(=O)O)C(=O)O [fluorine-18 labelled]  tissue uptake (nude mice U-87 MG tumour, bone; intravenous, 2 h): 0.23 ± 0.2 %ID/g
CC(F)C(=O)NC[C@@H]1O[C@H](C(=O)NCCCC[C@@H]2NC(=O)[C@@H](Cc3ccc(O)cc3)NC(=O)[C@H](CC(=O)O)NC(=O)CNC(=O)[C@H](CCCNC(=N)N)NC2=O)[C@H](O)[C@H](O)[C@H]1O (stereo partly shown) [fluorine-18 labelled]  tissue uptake (small-animal PET; female athymic nude mice, U-87 MG xenograft, kidney; intravenous, 3.7 MBq, 120 min): 0.82 ± 0.13 %ID/g
CC(C)[C@H](NC(=O)[C@@H]1CCCN1C(=O)[C@H](CCCNC(=N)N)NC(=O)[C@H](CS)NC(=O)[C@H](Cc1c[nH]c2ccccc12)NC(=O)[C@H](CCCNC(=N)N)NC(=O)[C@@H](Cc1ccccc1)NC(=O)[C@H](Cc1c[nH]cn1)NC(=O)[C@H](CCC(=O)O)NC(=O)[C@H](CS)NC(=O)[C@H](CS)NC(=O)COCCOCCNC(=O)[C@@H]1CC(=O)N[C@@H](CCCNC(=N)N)C(=O)NCC(=O)N[C@@H](CC(=O)O)C(=O)N[C@H](Cc2ccc(O)cc2)C(=O)N1)C(N)=O [technetium-99m labelled]  tissue uptake (nude mice M21 xenograft, bladder; intravenous, 0.037 MBq, 2 h): 81.4 ± 1.72 %ID

Excerpt of the above:
O=C([O-])CN1CCN(CC(=O)[O-])CC(Cc2ccc(NC(=S)NCCOCCOCCOCCOCCOCCOCCOCCNC(=O)CCCC(=O)NCc3ccc(-c4nncnn4)cc3)cc2)N(CC(=O)[O-])CC1.[64Cu+2] (stereo not shown)  tissue uptake (PET and biodistribution; healthy athymic nude mice, large intestine with contents; 4 h post-injection): 4.9 ± 0.7 %ID/g
CCCC[C@H](NC(=O)CNC(=O)CNC(=O)CN1CCN(CC(=O)O)CCN(CC(=O)O)CCN(CC(=O)O)CC1)C(=O)N[C@H]1CC(=O)NCCCC[C@@H](C(N)=O)NC(=O)[C@H](Cc2c[nH]c3ccccc23)NC(=O)[C@H](CCCNC(=N)N)NC(=O)[C@@H](Cc2ccccc2)NC(=O)[C@H](Cc2c[nH]cn2)NC1=O [lead-203 labelled]  tissue uptake (C57 mice with metastatic melanoma, lung; intravenous, 0.056 MBq, 2 h): 7.32 ± 2.13 %ID/g
O=C(NCCCN(CCCCN(CCCNC(=O)c1cccc(=O)n1[O-])C(=O)c1cccc(=O)n1[O-])C(=O)c1cccc(=O)n1[O-])c1cccc(=O)n1[O-].[89Zr+4]  tissue uptake (healthy athymic nude mice, gall bladder; intravenous, 1 h): 6.94 ± 3.38 %ID/g
